Published values pooled from the literature.
Each numbered part is a random draw from the data of one study; scales do not carry over between parts. Positions count from the first letter of the parent shown.

Series 1 — technique: DHFR PCA, deep sequencing; matrix: yeast; with: (+)-ABA 2500 µM; reference: wild-type fitted maximum; direction: higher = stronger binding
Target: ABI1, truncated, D143A, DHFR fusion (Arabidopsis thaliana)
Setting: methotrexate growth selection, single substitutions
Parent: PYL1, truncated, DHFR fusion (Arabidopsis thaliana); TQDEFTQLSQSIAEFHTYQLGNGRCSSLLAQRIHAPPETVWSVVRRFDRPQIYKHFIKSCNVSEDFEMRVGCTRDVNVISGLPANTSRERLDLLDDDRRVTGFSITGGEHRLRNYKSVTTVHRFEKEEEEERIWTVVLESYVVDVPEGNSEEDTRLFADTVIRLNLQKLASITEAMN
| Change | relative binding score |
| --- | --- |
| L93R | 105% |
| Q51K | 94.9% |
| L93Q | 102% |
| I172D | 63.3% |
| L82D | 0.609% |
| L138E | 35.5% |
| V137H | 0.11% |
| V118W | 60% |
| I133W | 104% |
| T119E | 34.5% |
| S140V | 1.89% |
| E174Y | 89.4% |
| V121C | 98.6% |

Series 2 — technique: RNA Bind-n-Seq; form: RNA; matrix: in vitro; tested at: 365 nM; reference: no-protein control; direction: higher = stronger binding
Target: RNA binding protein fox-1 homolog 2, RRM domain, GST-SBP tag (RBFOX2, Homo sapiens, UniProt O43251-10, residues 100-194)
Setting: natural RNA segment, single round, ends assumed
Shared flanks, not repeated: GGGAGUUCUACAGUCCGACGAUC … UGGAAUUCUCGGGUGCCAA
Construct (chain): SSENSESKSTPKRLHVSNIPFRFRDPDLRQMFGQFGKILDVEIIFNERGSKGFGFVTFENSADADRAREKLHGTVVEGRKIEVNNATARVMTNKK
| Strand | RBNS enrichment (R) |
| --- | --- |
| CUUUAUGAAGGGGCGUUUUAAAGUUGUUGUUUAGCAGUGACAUUUAAUAUGGUCCAAUUGCUUUUCUUUUUAACGUGACAAAAAGAGAAUAAGGAACAAACACUAUUGCU | 0.788 |
| UGGACAUGGAGCUGUCCUUGGGAAGGACCCCACGCUCGGGGCCCCACUCCUGCUGGAUGUCCAGGCGGCCUUGGGAGGCCCAGCCCUGGGCCUGCCUGGGGCUUUAACCA | 0.204 |
| AUUGACAGUUGCAGAAUUGUGGAGUGUUUUUACAUUGAUCUUUUGCUAAUGCAAUUAGCAUUAUGUUUUGCAUGUAUGACUUAAUAAAUCCUUGAAUCAUACGACUGGUA | 0.377 |
| UGCCCGGCCUGCCUUCUGGCCCCACGCCCACAGGCGUAGUCACAUCUUUGUACUGUACUCCCCUGUCUCACCUGGGGCAACCUCAGAGCCCCACUAAGCUGAAGGCCCCC | 0.222 |
| GACUGUCUUCUGGGCCCUUCCAAGCCCAUCUGUGGAGUCGCCUCCCUCCUUCCCCCCACCCCCGUGUGAAGUGUGUUAUCACCAGCAGACACUGCCGGACUCCUGCCCAC | 0.437 |
| UGGAUUAACAAAUAUUUUGAGUUUCCUGAAAACAAACAGAAACAUUAAUGGUAUUGAAGUGUGUUAGUAGUCUGGCCGUGUGCCCAAACUUAUGUUUCGCAGCAAAAGUG | 0.298 |
| GCUUUAAAAAAACCUCCACAGCCGAAUCUUCUCCUCCGAGCCACUCCACGUCACGUCCAGCUGGGCCUGGCCAGUCUGUGGUUAUCCAUGUGGGAUGAGAUAACACCACA | 0.254 |
| GAUUUCAUGAAUGAAAUAAAGAUUUGUUAGUGGGAAGCAAAUAAAACACAUUAAGUUGAUUGAGUUGGACAUACGGUUCCUGAAGUAUCUUGAUUUGUGUUUUUUUUUUU | 0.938 |

Series 3 — target: CCNB3, cyclin fold, Cln2 fusion (human); technique: yeast growth competition, sequencing; matrix: yeast; setting: strong parent motif; reference: not given; direction: higher = stronger binding
Parent: RBL2 docking peptide (human); STTRRRLFVENDS
| Change | normalised enrichment score |
| --- | --- |
| STPRRRLFVENDS [T3P] | 1.81 |
| STQRRRLFVENDS [T3Q] | 0.0764 |
| SWTRRRLFVENDS [T2W] | 1.41 |
| STTRRFLFVENDS [R6F] | 0.854 |
| STTRRRLYVENDS [F8Y] | 0.279 |
| STTRRRLFVENDW [S13W] | 0.788 |
| KTTRRRLFVENDS [S1K] | 0.607 |
| STTTRRLFVENDS [R4T] | 0.623 |
| STTRRWLFVENDS [R6W] | 0.176 |
| STTRRRLFVENDA [S13A] | 1.03 |
| STTRRRLFYENDS [V9Y] | 0.969 |
| SSTRRRLFVENDS [T2S] | 1.15 |
| TTTRRRLFVENDS [S1T] | 1.01 |
| STTARRLFVENDS [R4A] | 1.06 |
| STTRRRLFVEIDS [N11I] | 0.307 |
| STTVRRLFVENDS [R4V] | 0.316 |
| STTRNRLFVENDS [R5N] | 0.211 |
| YTTRRRLFVENDS [S1Y] | 1.08 |
| STTRRRLFHENDS [V9H] | 0.928 |
| STTRRRLFPENDS [V9P] | 0.756 |
| STTRRRLFVYNDS [E10Y] | 0.516 |
| STTRRRLDVENDS [F8D] | 0.0359 |
| SDTRRRLFVENDS [T2D] | 0.342 |
| STTRRRLFDENDS [V9D] | 0.788 |
| STTRRRLWVENDS [F8W] | 0.0993 |

Series 4 — technique: universal PBM; form: double-stranded DNA, one strand shown; matrix: in vitro; tested at: 600 nM; direction: higher = stronger binding
Target: Sal-like protein 4, full length isoform A (SALL4, Homo sapiens, UniProt Q9UJQ4, residues 1-1053)
UniProt Q9UJQ4, sequence (whole entry, looked up): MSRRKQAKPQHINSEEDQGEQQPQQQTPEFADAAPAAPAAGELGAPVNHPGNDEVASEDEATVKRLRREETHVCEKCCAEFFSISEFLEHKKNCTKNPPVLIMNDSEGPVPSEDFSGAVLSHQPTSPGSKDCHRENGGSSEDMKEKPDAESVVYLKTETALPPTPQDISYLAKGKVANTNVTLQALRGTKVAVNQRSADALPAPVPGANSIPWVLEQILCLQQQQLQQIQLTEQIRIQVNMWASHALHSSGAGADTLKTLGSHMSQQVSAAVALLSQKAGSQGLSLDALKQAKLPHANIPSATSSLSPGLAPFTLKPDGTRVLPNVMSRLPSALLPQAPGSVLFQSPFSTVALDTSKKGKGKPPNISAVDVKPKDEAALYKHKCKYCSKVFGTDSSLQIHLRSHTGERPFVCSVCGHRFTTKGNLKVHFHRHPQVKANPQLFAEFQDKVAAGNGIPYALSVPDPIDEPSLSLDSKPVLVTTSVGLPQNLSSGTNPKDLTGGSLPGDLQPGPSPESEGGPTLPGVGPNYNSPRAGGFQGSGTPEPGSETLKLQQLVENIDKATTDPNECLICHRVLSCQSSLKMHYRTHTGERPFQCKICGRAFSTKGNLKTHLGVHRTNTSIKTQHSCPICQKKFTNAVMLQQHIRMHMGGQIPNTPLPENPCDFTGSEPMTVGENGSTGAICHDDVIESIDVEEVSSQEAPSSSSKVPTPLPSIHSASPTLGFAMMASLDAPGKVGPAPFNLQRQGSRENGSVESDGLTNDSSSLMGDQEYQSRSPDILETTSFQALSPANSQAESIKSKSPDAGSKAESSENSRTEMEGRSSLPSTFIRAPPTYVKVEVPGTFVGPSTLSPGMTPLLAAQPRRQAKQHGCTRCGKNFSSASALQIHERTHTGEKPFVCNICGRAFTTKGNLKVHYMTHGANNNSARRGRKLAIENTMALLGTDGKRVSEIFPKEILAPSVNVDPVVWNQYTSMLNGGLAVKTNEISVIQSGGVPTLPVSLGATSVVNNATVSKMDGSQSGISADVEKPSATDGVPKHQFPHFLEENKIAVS
Setting: 8-mer, flanks averaged, mean of replicates
| Strand | E-score |
| --- | --- |
| ACCGGTGC | -0.316 |
| ATTAGAAG | 0.119 |
| ATGAAATC | 0.297 |
| GAAGATCC | -0.179 |
| GCGGTAGA | -0.156 |
| AAGTTGGT | 0.0551 |
| ATGCTCGG | -0.141 |
| AAGTTAGT | 0.128 |
| AACGCCCC | -0.226 |
| ACATGTCC | -0.0474 |
| CACCGCCG | -0.272 |
| AAAATGTA | 0.295 |
| GAAGTGGA | -0.0668 |
| ACGCCATA | 0.0533 |
| ATGTTCCG | -0.0524 |
| CCACAAAG | 0.0196 |
| CGAGTACG | -0.132 |
| ACCTGATA | 0.134 |
| CAGGACCA | -0.289 |
| AAGTATTA | 0.343 |
| GATGTTGA | -0.0135 |
| TGGCGAAA | -0.00941 |
| ACATTAGG | 0.122 |
| AGACTAAT | 0.184 |
| CAAGAGGG | -0.0369 |

Series 5 — technique: Sort-seq; refers to: YFP reporter; matrix: E. coli; setting: PhoQ-PhoP variant library; with: 10 µM Mg2+; reference: high Mg2+ state; direction: higher = stronger signaling
Substance: PhoQ, residues 284 288 289 292 302 303 ALASRC
| target | fold induction |
| --- | --- |
| PhoP, residues 12 14 15 18 19 SFCSL (Escherichia coli, UniProt P23836) | 10.5 |
| PhoP, residues 12 14 15 18 19 AYFRS (Escherichia coli, UniProt P23836) | 19.7 |
| PhoP, residues 12 14 15 18 19 HHYTI (Escherichia coli, UniProt P23836) | 11.6 |

A few entries again (series 4):
| Strand | E-score |
| --- | --- |
| ATGAAATC | 0.297 |
| ACATTAGG | 0.122 |
| CAGGACCA | -0.289 |
| CCACAAAG | 0.0196 |
| ATGTTCCG | -0.0524 |
| AGACTAAT | 0.184 |
| CGAGTACG | -0.132 |
| GCGGTAGA | -0.156 |
| GATGTTGA | -0.0135 |
| ACCTGATA | 0.134 |
